Results from different studies.
Several values in a cell are separate wells, animals, samples, runs or records. ± marks the error that the study gave.
ADRA2C: Alpha-2C adrenergic receptor (ADRA2C, Homo sapiens, UniProt P18825)
MAL12: Alpha-glucosidase MAL12 (MAL12, Saccharomyces cerevisiae S288c, UniProt P53341)
PGR: Progesterone receptor (PGR, Homo sapiens, UniProt P06401)

CCc1cc(=O)[nH]c(-n2nc(C)cc2NC(=O)c2cc(C)ccc2F)n1
inhibition (KDR (Homo sapiens, UniProt P35968); radiometric kinase; 10 µM): no inhibition

O=C(N1CCC2(CC1)C[C@@H](CN1CCCCS1(=O)=O)CCO2)C1(c2ccccc2)CCCC1
inhibition (DDX3X (Homo sapiens, UniProt O00571); ATPase activity; 50 µM): 30%

COc1cc(Nc2ncc(F)c(Nc3ccc4c(n3)NC(=O)C(C)(C)O4)n2)cc(OC)c1OC
inhibition (CAMK2A (Homo sapiens, UniProt Q9UQM7); KINOMEscan; 10 µM): 62%

CN1CCN(c2nc(N)c3ccccc3n2)CC1
inhibition (Neuronal acetylcholine receptor; alpha4/beta2 (Homo sapiens, UniProt P17787+P43681); radioligand binding, radioligand competition binding; 0.1 µM, first replicate; reference: control specific binding): 8.3%

CN(C(=O)n1cnc(-c2ccc[n+]([O-])c2)c1)C1CCCCC1
inhibition (Apelin receptor (APLNR, Homo sapiens, UniProt P35414); radioligand binding; 50 µM): 11%

COc1ccc2c3c([nH]c2c1)CCN(C)CC3
inhibition (Chrna7 (Rattus norvegicus, UniProt Q05941); ACh-evoked current, antagonist, two-electrode voltage clamp; Xenopus laevis oocytes; 10 µM, holding potential -40 mV, together with: 100 µM acetylcholine): 30.6 ± 6.4%

C[C@H]1CN(c2n[nH]c3nc(N[C@H]4CC[C@H](NS(=O)(=O)CCC(F)(F)F)CC4)ncc23)CCO1
relative abundance (DDR1 (Homo sapiens, UniProt Q08345); inhibitor, Kinobeads competition profiling; 20 µM; reference: vehicle): 1.08

CCOC(=O)Nc1ccc(NCc2ccc(F)cc2)nc1N
IC50 (Plasmodium falciparum; HB3): 2.51 µM

CC(C)N1CCC[C@H]1CNC(=O)c1cn(C2CCCC2)c(=O)c2c1c1ccccc1n2C
inhibition (Grin1 (Rattus norvegicus, UniProt P35439); radioligand binding; rat; 10 µM): -2%

CN(CCN1CCC(OC(=O)Nc2ccccc2-c2ccccc2)CC1)C(=O)c1ccc(CN2CCC(C(N)=O)CC2)cc1
inhibition (phosphodiesterase III; enzyme activity; 1 µM): 10%

C[C@@H]1N=C(c2ccccc2F)c2cc(Br)ccc2-n2cnc(C(=O)O)c21
inhibition (rat benzodiazepine site; binding; rat brain; 10 µM, together with: [3H]flunitrazepam): 95.3 ± 4.8%

C[C@@H](NC(=O)[C@@H](N)Cc1ccc(O)cc1)C(=O)NCC(=O)N[C@@H](Cc1ccccc1)C(=O)N(C)CCC[C@@]1(c2ccc(F)cc2)OCc2cc(C#N)ccc21
inhibition (ADRA2C; 10 µM): < 50%

CN1C(=S)N(c2ccccc2)C(=O)/C1=C1/C(=O)N(C)c2ccc(Cl)cc21
inhibition (MAL12; enzyme activity; 50 µM, together with: pNPG): 21.9%

CCCC1O[C@@H]2C[C@H]3[C@@H]4CCC5=CC(=O)C=C[C@]5(C)[C@H]4[C@@H](O)C[C@]3(C)[C@]2(C(=O)CO)O1 (stereo partly shown)
IC50 (Plasmodium falciparum; HB3): 3.98 µM

COCc1c(-c2cc3cc(C)cc(OC)c3s2)c2c(N)ncnn2c1CN1CCNC(=O)C1
inhibition (kainate receptor; radioligand binding; 10 µM): 3%

CCc1ccc(N2C(=O)/C(=C3/C(=O)N(C)c4ccc(Cl)cc43)NC2=S)cc1
inhibition (MAL12; enzyme activity; 25 µM, together with: pNPG): 15% and 14.8%

CC(C)CC(=O)OC[C@H]1O[C@@](C#N)(c2ccc3c(N)ncnn23)[C@H](O)[C@@H]1O
inhibition (PGR; 20 µM): 3%

O=C1O[C@H]2[C@@H]3OC(=O)c4cc(O)c(O)c(O)c4-c4c(O)c(O)c5oc(=O)c6c(c(O)c(O)c7oc(=O)c4c5c76)-c4c(cc(O)c(O)c4O)C(=O)OC[C@H]3OC(O)[C@@H]2OC(=O)c2cc(O)c(O)c(O)c2-c2c1cc(O)c(O)c2O (mixture of isomers)
inhibition (Protein disulfide-isomerase, a' domain (P4HB, Homo sapiens, UniProt P07237); di-eosin-GSSG reductase activity; isolated a' domain; 20 µM): inhibited

Cn1cccc1-c1cccnc1
inhibition (ADRA2C; binding; 50 µM): 14.9%

O=C(Nc1cnccc1Cl)N1CCN(Cc2ccc3c(c2)OC(F)(F)O3)CC1
inhibition (STK17A (Homo sapiens, UniProt Q9UEE5); kinase activity, inhibitor; 50 µM, human): -3%

NCCc1c[nH]c2ccc(O)cc12
inhibition (Htr1a (Rattus norvegicus, UniProt P19327); radioligand binding; rat; 10 µM): 99.5%

Oc1ccc2c3c1O[C@H]1[C@@H](O)CC[C@@]4(O)[C@@H](C2)N(CC2CCC2)CC[C@]314
log2 fold change (GPR37L1 (Homo sapiens, UniProt O60883); β-arrestin recruitment, TANGO luminescence; concentration not given; reference: basal luminescence): 0.297

O=C(Nc1cccnn1)N1CCC(=Cc2cccc(Oc3ccc(C(F)(F)F)cn3)c2)CC1
inhibition (ADRA2C; binding; 50 µM, together with: [3H]rauwolscine): 87%

O=C(O[C@@H]1Cc2c(O)cc(O)cc2O[C@@H]1c1cc(=O)c(O)c2c(O)c(O)cc([C@H]3Oc4cc(O)cc(O)c4C[C@H]3O)c2c1)c1cc(O)c(O)c(O)c1
inhibition (P4HB (Homo sapiens, UniProt P07237); di-eosin-GSSG reductase activity; 20 µM, 15 min): inhibited

FC(F)(F)c1cccc(Nc2nc(NCCOc3ccccc3)nc3[nH]cnc23)c1
inhibition (MAPK11 (Homo sapiens, UniProt Q15759); Z'-LYTE or Adapta; 5 µM): 3%

NNC(=O)c1ccncc1
inhibition (Gag-Pol polyprotein, integrase with LEDGF/p75 (gag-pol, Human immunodeficiency virus 1, UniProt P12497); LEDGF/p75 binding, inhibitor, AlphaScreen; HIV-1; 1000 µM): no inhibition

COc1ccc(N2C(=O)N(c3c(C)cccc3Cl)Cc3cnc(Nc4ccc(C5CCN(C)CC5)cc4OC)nc32)nc1
inhibition (TNK2 (Homo sapiens, UniProt Q07912); kinase activity; 0.5 µM): 98%

CN1CCN(c2cc(-c3ccncc3)c(-c3ccc4ccccc4c3)nn2)CC1
inhibition (HRH1 (Homo sapiens, UniProt P35367); antagonist, FLIPR; 10 µM): 0.5%

CC[C@H](C)[C@H](NC(=O)[C@@H](NC(=O)[C@H](N)Cc1ccccc1)C(C)C)C(=O)N[C@@H](C)C(N)=O
inhibition (APP (Homo sapiens, UniProt P05067); amyloid-beta aggregation, thioflavin T fluorescence; 2.0 µM, 168 h, together with: 2 µM amyloid-beta): 65.4%

c1ccc(C(NCCNC(c2ccccc2)c2ccccc2)c2ccccc2)cc1
inhibition (PGR; activity; 10 µM, Eurofins selectivity panel): 65%

Cc1ncc(C)n2nc(/C=C/c3nc(N4CCCC4)cc(N4CCOCC4)n3)nc12
inhibition (thyroid hormone receptor; radioligand binding; 10 µM): -10%

Excerpt of the above:
Oc1ccc2c3c1O[C@H]1[C@@H](O)CC[C@@]4(O)[C@@H](C2)N(CC2CCC2)CC[C@]314
log2 fold change (GPR37L1 (Homo sapiens, UniProt O60883); β-arrestin recruitment, TANGO luminescence; concentration not given; reference: basal luminescence): 0.297

COCc1c(-c2cc3cc(C)cc(OC)c3s2)c2c(N)ncnn2c1CN1CCNC(=O)C1
inhibition (kainate receptor; radioligand binding; 10 µM): 3%

C[C@H]1CN(c2n[nH]c3nc(N[C@H]4CC[C@H](NS(=O)(=O)CCC(F)(F)F)CC4)ncc23)CCO1
relative abundance (DDR1 (Homo sapiens, UniProt Q08345); inhibitor, Kinobeads competition profiling; 20 µM; reference: vehicle): 1.08

CC(C)CC(=O)OC[C@H]1O[C@@](C#N)(c2ccc3c(N)ncnn23)[C@H](O)[C@@H]1O
inhibition (PGR; 20 µM): 3%

C[C@@H](NC(=O)[C@@H](N)Cc1ccc(O)cc1)C(=O)NCC(=O)N[C@@H](Cc1ccccc1)C(=O)N(C)CCC[C@@]1(c2ccc(F)cc2)OCc2cc(C#N)ccc21
inhibition (ADRA2C; 10 µM): < 50%
